# Experimental data from different studies.
# Each line is one published result; not all experiments were run side by side. “And” joins repeats or separate records; there may be more than shown. ± gives the spread as reported.
SMILES,test,test system,conditions,solubility
CC(=O)O[C@H]1C(=O)[C@@]2(C)[C@H]([C@H](OC(=O)c3ccccc3)[C@]3(O)C[C@H](OC(=O)[C@H](OCOP(=O)(O)O)[C@@H](NC(=O)c4ccccc4)c4ccccc4)C(C)=C1C3(C)C)[C@]1(OC(C)=O)CO[C@@H]1C[C@@H]2O,"HPLC, saturated solution",HBSS,"30 s, pH 6.5",100 µg/mL
C#CCN(C(=O)OCc1ccc(C(=O)N(C)C)cc1)[c-]1cccc1.[Fe+2].c1cc[cH-]c1,absorbance,RPMI medium with 5% FBS,1% DMSO,> 200 µM
CC1(C)C(=CC=C2CCCC(C=CC3=[N+](CCC[N+](C)(C)C)c4ccc(S(=O)(=O)O)cc4C3(C)C)=C2SCCOCCOCCC(=O)O)N(CCC[N+](C)(C)C)c2ccc(S(=O)(=O)O)cc21,,PBS with 30% FBS,"pH 7.4, 50 mM HEPES",53000 µg/mL
Cc1ncc2[nH]c(=O)n(-c3cnc(Oc4cccc5c4C(C)(C)CO5)c(Cl)c3)c2n1,,simulated gastric fluid,pH 2,153 µM
CC(C)(C)NC(=O)c1ccccc1,,PBS,"2 h, pH 7.4, 25 °C, 2% DMSO",313 µM
CC1(C)OB(c2ccc(COC(=O)N(Cc3cn(-c4cc5ccc(O)cc5oc4=O)nn3)[c-]3cccc3)cc2)OC1(C)C.[Fe+2].c1cc[cH-]c1,absorbance,RPMI medium with 5% FBS,1% DMSO,> 180 µM
O=C1Nc2cc(I)ccc2C1=Cc1cc(Br)c(O)c(Br)c1,AlphaScreen buffer,"aqueous buffer, 7.5% DMSO",pH 7.3,163 ± 14 µM
O=C(Nc1ccc2ccccc2c1)C1CC2(CCC2)C1,kinetic solubility,PBS with 2% DMSO,"2 h, pH 7.4, 25 °C, mean of incubations",7 µM
CNC(=O)C[C@H](Cc1ccc(C#N)cc1)NC(=O)c1cc(-c2ccc(CN[C@H](C)c3ccc(C)cc3)o2)ccc1Cl,,,pH 6.5,6 µg/mL
O=C1Nc2cc(Cl)c(Cl)cc2C1=Cc1cc(Br)c(O)c(Br)c1,AlphaScreen buffer,"aqueous buffer, 7.5% DMSO",pH 7.3,42.9 ± 7.3 µM
OC[C@H]1O[C@@H](n2cnc3c(SCc4ccccc4)nc(Cl)nc32)C[C@@H]1O,UV absorbance,culture medium,stock diluted to 0.025 mM,14.4 µM
CC1(C)OCCc2cc(C(=O)N3CCC(c4nc(-c5ccccc5)n[nH]4)CC3)ccc21,LC-MS,DPBS,18 h,44.2 ± 0.7 µM
CC1CCC2C(C)C(OC(=O)CCC(=O)OCCOCCOCCOC(=O)N3CCC(Nc4ccc(S(=O)(=O)NC(=O)c5ccc(N6CCN(CC7=C(c8ccc(Cl)cc8)CC(C)(C)CC7)CC6)cc5Oc5cnc6[nH]ccc6c5)cc4[N+](=O)[O-])CC3)OC3OC4(C)CCC1C32OO4 (stereo not drawn),,,,3.33 µg/mL
O=C1Nc2ccc(I)cc2C1=Cc1ccc(O)cc1,AlphaScreen buffer,"aqueous buffer, 7.5% DMSO",pH 7.3,16.5 ± 1.2 µM
O=C(Nc1ccc2ccccc2c1)C1CC2(CC2)CO1 (stereo not drawn),kinetic solubility,PBS with 2% DMSO,"2 h, pH 7.4, 25 °C, single incubation",361 µM and 358 µM
CCC1(CC)CC(=O)N(C2c3cc(C(=O)NC4c5ccccc5CC4O)ccc3OC2(C)COC)C(=N)N1 (stereo not drawn),,simulated gastric fluid,pH 2,≥ 100 µM
O=C1Nc2ccc(I)cc2C1=Cc1cncs1,AlphaScreen buffer,"aqueous buffer, 7.5% DMSO",pH 7.3,6.1 ± 3.5 µM
CC(C)N(Cc1ccccc1)C(=O)C1(C(F)(F)F)CC1,,PBS,"2 h, pH 7.4, 25 °C",284 µM
O=C(OCc1ccc(F)cc1)N(Cc1cccc(CN2CCCCC2)c1)[c-]1cccc1.[Fe+2].c1cc[cH-]c1,absorbance,RPMI medium with 5% FBS,1% DMSO,102 ± 28 µM
Cc1[nH]nc2c1N=C(c1ccccc1Cl)c1cnc(N3CCOCC3)cc1N2,,aqueous buffer,pH 4.5,2.1 µg/mL
FC(F)(F)C1(c2ccc(CN3CCN(C(c4ccccc4)c4ccc(Cl)cc4)CC3)cc2)CCC1 (stereo not drawn),,PBS,"2 h, pH 7.4, 25 °C, 2% DMSO",5 µM
CN(C)C(=O)c1ccc(COC(=O)N[c-]2cccc2)cc1.[Fe+2].c1cc[cH-]c1,absorbance,RPMI medium with 5% FBS,1% DMSO,> 200 µM
O=C(NC1(C(F)(F)F)CCC1)c1ccccc1,,PBS,"2 h, pH 7.4, 25 °C",338 µM
O=c1[nH]cccc1[C@H](CO)Nc1nc(N2C[C@@H]3C[C@H]2CO3)c2cc(-c3ccccc3)sc2n1,,,,7.2 µM
Cc1ncc2[nH]c(=O)n(-c3cnc(Oc4cccc5c4C(C)(C)CO5)c(Cl)c3C)c2n1,,simulated gastric fluid,pH 2,167 µM
O=C(NCc1ccc2c(c1)CN(C(=O)c1cc(-c3ccccc3)no1)C2)C1C=CC=CC=C1,LC-MS,DPBS,18 h,0.4 ± 0.1 µM
O=c1c2ccccc2[se]n1CCCCCCn1[se]c2ccccc2c1=O,"shake-flask, RP-HPLC",PEG400,"24 h, 25 °C",2380 ± 80 µg/mL
Cc1cc(C(=O)N[C@@H](CC(=O)NC(C)(C)C)C(=O)NCCNC(=O)c2cc(-c3ccccc3)ccn2)no1,,simulated gastric fluid,pH 1.2,> 96 µg/mL
CCCCCCCC/C=C/CCCCCCCC(=O)[O][Pt-2]1([OH])([Cl])([NH+]=C(CC)N(C)CCNc2c3ccccc3[nH+]c3ccccc23)[NH2+]CCC[NH2+]1.O=[N+]([O-])[O-].O=[N+]([O-])[O-],,water,,~12.5 µM
CN(Cc1ccc(C2(C(F)(F)F)CCC2)cc1)Cc1cccc2ccccc12,,PBS,"2 h, pH 7.4, 25 °C",8 µM
O=C(Nc1ccc2ccccc2c1)C1CC2(CC2)C1,kinetic solubility,PBS with 2% DMSO,"2 h, pH 7.4, 25 °C, single incubation",3 µM and 2 µM
CCC(C)n1c(C(=O)Nc2cnc(C(=O)NC)n(CC(C)C)c2=O)ncc(NC(=O)c2ncc(NC(=O)c3ccccc3)c(=O)n2Cc2ccc(OC)cc2)c1=O (stereo not drawn),thermodynamic,PBS,"4 h, pH 7.4, 25 °C",5 µM
CC(C)N(Cc1ccccc1)C(=O)C1(C(F)(F)F)CCC1,,PBS,"2 h, pH 7.4, 25 °C, 2% DMSO",230 µM
O=C(Nc1ccc2ccccc2c1)C1CC2(CO1)CC(F)(F)C2 (stereo not drawn),kinetic solubility,PBS with 2% DMSO,"2 h, pH 7.4, 25 °C, single incubation",34 µM and 33 µM
CN(C)S(=O)(=O)c1ccc(S(=O)(=O)N2CCC(n3c(=O)[nH]c4ccccc43)CC2)cc1,HPLC,Miglyol 912,"24 h, 20 °C",2 µg/mL
O=S1(=O)CC2CCCCC2CS1 (stereo not drawn),"phase solubility, NMR",water,"25 °C, added: hydroxypropyl-β-cyclodextrin 364 mM",41600 µM
O=C1Nc2ccccc2C1=Cc1cc(Br)c(O)c(Br)c1,AlphaScreen buffer,"aqueous buffer, 7.5% DMSO",pH 7.3,395 ± 16 µM
COc1ccc(N2CCOCC2)c2sc(NC(=O)c3ccnc(CN4CCCC4)c3)nc12,in situ salt screening,0.1 M hydrochloric acid,"7 days, pH 1.33",137 µg/mL
CC(C)(C)C(=O)Nc1ccccc1,,PBS,"2 h, pH 7.4, 25 °C",≥ 400 µM
Cc1cc(C(=O)N[C@@H](CC(=O)NC(C)(C)C)C(=O)NCCNC(=O)c2cccc(-c3cc[nH]n3)c2)no1,,aqueous buffer,pH 7.4,> 96 µg/mL
FC(F)(F)C1(c2ccc(CN3CCN(C(c4ccccc4)c4ccc(Cl)cc4)CC3)cc2)CC1 (stereo not drawn),,PBS,"2 h, pH 7.4, 25 °C",3 µM
Cc1nc(C)c(-c2ccnc(Nc3cccc(C#N)c3)n2)s1,,aqueous buffer,pH 7.4,< 1.32 µg/mL

# Some of these lines once more:
SMILES,test,test system,conditions,solubility
O=C(Nc1ccc2ccccc2c1)C1CC2(CC2)C1,kinetic solubility,PBS with 2% DMSO,"2 h, pH 7.4, 25 °C, single incubation",3 µM and 2 µM
CC1(C)C(=CC=C2CCCC(C=CC3=[N+](CCC[N+](C)(C)C)c4ccc(S(=O)(=O)O)cc4C3(C)C)=C2SCCOCCOCCC(=O)O)N(CCC[N+](C)(C)C)c2ccc(S(=O)(=O)O)cc21,,PBS with 30% FBS,"pH 7.4, 50 mM HEPES",53000 µg/mL
CNC(=O)C[C@H](Cc1ccc(C#N)cc1)NC(=O)c1cc(-c2ccc(CN[C@H](C)c3ccc(C)cc3)o2)ccc1Cl,,,pH 6.5,6 µg/mL
